Results of several laboratories.
Parts stem from different laboratories: compare values within a part only. “And” joins repeats or separate records; there may be more than shown.
Sequence of UniProt Q9UM73 (whole entry, looked up): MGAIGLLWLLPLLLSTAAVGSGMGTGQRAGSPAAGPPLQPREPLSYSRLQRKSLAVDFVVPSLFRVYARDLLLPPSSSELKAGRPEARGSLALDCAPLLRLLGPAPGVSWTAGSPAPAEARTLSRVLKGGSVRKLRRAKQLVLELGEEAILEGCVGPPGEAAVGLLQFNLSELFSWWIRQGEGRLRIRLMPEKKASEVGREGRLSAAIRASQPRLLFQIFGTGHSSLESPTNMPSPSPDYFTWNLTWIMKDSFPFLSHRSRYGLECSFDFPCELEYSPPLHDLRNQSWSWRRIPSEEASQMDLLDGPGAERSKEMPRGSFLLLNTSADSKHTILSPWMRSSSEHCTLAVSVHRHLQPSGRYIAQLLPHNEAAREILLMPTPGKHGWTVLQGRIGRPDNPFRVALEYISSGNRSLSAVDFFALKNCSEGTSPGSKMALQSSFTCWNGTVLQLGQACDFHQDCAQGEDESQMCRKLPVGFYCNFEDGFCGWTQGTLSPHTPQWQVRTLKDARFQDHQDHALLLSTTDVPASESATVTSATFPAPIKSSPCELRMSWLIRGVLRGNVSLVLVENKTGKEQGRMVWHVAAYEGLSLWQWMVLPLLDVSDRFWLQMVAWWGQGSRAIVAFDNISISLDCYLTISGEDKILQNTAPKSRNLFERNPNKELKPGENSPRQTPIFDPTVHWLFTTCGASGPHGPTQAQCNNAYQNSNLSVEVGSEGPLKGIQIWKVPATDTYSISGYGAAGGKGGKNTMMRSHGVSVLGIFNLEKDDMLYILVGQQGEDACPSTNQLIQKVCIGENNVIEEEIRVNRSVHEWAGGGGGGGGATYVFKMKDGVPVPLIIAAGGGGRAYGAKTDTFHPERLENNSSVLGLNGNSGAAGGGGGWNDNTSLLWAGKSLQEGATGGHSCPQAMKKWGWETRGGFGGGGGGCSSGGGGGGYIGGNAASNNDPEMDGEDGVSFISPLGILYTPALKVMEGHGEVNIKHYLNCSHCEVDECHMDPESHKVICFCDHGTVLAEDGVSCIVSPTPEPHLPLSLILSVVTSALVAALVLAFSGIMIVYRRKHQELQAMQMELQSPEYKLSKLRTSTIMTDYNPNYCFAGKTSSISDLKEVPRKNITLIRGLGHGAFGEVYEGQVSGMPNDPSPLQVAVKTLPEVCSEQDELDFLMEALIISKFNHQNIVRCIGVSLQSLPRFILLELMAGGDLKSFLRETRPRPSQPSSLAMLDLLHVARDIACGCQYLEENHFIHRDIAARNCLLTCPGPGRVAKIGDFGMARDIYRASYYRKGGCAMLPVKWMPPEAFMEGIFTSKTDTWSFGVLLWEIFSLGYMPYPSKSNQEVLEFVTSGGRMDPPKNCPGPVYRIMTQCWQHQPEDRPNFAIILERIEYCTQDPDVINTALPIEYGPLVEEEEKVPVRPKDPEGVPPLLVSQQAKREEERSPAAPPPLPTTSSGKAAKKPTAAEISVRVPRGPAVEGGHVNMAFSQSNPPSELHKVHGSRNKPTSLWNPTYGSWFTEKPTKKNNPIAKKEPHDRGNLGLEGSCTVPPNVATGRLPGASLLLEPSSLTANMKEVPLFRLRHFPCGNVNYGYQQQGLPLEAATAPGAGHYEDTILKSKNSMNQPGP
Sequence of UniProt Q8NG66 (whole entry, looked up): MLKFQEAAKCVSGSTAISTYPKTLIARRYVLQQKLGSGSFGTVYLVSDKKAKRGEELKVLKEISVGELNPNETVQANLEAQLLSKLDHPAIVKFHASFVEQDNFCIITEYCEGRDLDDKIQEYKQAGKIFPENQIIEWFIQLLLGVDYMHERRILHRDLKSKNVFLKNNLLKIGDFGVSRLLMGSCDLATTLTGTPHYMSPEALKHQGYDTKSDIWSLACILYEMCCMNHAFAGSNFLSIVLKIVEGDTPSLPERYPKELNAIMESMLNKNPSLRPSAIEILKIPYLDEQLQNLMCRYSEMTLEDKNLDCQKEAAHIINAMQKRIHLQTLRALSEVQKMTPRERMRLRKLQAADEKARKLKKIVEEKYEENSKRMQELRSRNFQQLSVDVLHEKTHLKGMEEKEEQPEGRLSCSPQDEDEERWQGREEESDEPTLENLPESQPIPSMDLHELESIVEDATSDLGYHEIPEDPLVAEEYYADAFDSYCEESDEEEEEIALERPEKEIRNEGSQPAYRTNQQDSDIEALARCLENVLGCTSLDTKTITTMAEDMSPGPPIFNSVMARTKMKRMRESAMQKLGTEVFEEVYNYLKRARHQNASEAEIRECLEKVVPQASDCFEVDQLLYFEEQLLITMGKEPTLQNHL
Sequence of UniProt Q9Y2U5 (whole entry, looked up): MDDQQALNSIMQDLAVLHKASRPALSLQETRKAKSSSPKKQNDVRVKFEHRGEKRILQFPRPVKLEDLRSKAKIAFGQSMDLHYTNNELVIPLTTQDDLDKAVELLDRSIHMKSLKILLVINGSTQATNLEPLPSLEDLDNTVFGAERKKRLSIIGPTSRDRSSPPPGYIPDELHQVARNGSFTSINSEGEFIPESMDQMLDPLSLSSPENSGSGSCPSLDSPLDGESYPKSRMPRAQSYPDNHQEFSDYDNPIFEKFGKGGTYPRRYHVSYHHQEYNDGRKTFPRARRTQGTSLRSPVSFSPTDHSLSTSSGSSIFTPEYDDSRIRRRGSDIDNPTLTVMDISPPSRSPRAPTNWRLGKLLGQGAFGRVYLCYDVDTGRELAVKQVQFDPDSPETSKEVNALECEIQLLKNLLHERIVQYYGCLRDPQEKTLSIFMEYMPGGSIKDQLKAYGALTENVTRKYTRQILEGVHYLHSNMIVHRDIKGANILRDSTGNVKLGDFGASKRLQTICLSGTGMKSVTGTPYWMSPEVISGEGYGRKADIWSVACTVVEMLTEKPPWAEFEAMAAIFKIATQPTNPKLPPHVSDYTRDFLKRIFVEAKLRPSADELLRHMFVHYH
Sequence of UniProt P16591 (whole entry, looked up): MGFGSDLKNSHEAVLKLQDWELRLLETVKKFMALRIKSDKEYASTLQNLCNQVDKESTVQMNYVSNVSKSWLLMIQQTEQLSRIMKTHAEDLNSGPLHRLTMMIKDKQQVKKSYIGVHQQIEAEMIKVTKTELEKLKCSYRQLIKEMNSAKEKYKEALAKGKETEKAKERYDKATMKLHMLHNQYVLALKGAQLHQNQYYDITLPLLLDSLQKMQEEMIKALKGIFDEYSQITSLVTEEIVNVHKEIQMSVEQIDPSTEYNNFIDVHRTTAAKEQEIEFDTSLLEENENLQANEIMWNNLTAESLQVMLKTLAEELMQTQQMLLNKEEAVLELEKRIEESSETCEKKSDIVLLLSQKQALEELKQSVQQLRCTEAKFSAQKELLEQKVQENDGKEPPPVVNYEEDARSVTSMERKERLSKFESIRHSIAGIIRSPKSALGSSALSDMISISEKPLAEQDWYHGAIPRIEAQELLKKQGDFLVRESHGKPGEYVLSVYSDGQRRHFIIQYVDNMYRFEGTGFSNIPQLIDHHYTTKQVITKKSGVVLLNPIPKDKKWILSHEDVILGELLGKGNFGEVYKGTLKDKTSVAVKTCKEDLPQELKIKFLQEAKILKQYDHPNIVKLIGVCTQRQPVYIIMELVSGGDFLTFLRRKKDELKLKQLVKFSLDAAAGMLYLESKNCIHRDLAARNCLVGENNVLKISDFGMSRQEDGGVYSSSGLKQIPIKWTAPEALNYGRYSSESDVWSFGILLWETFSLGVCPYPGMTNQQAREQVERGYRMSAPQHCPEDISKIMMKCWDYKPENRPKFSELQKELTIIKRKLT
Sequence of UniProt Q9Y243 (whole entry, looked up): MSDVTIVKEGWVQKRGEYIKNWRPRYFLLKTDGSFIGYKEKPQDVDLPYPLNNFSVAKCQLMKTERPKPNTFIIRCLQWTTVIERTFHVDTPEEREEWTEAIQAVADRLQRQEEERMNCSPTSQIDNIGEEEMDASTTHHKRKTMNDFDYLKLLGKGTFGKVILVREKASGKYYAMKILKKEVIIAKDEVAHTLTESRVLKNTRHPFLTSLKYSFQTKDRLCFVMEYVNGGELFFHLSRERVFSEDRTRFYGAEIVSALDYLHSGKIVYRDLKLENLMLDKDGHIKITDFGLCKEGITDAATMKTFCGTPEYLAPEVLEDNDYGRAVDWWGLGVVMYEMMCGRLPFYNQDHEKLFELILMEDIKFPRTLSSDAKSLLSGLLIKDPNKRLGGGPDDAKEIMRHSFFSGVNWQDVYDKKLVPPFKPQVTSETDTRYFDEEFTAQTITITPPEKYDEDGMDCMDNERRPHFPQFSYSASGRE
Sequence of UniProt Q9UBE8 (whole entry, looked up): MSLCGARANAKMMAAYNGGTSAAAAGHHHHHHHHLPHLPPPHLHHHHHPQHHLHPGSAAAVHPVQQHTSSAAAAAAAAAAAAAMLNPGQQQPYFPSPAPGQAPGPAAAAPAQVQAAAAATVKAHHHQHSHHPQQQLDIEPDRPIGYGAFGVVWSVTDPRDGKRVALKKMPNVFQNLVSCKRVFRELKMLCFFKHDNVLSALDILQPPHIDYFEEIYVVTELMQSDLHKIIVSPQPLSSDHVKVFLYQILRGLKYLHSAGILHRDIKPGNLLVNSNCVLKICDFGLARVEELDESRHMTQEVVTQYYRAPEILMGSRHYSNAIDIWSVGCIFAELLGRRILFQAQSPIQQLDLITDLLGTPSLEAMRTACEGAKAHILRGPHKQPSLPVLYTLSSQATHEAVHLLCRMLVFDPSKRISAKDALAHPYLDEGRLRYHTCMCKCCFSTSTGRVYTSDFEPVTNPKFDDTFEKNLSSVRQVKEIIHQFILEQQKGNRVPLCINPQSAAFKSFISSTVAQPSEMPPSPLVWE
Sequence of UniProt P51817 (whole entry, looked up): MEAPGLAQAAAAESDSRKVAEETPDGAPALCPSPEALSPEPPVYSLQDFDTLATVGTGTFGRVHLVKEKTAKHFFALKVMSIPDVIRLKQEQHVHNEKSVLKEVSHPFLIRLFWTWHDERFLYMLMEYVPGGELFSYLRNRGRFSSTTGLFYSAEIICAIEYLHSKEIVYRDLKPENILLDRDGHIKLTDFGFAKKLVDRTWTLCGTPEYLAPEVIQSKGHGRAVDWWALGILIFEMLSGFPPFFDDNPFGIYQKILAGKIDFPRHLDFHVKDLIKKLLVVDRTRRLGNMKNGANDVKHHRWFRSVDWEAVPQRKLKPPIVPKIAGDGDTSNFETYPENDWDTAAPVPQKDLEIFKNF

Study 1
Cell line: mouse MPNST tumor cells
Technique: high-content nuclear imaging
Measured: cell number
Tested at: 10 µM
Time: 12 h
Setting: mean of 2 replicates
Reference: plate mean
Reading: higher = more cells
SMILES	nuclei count
CCOC(=O)N1CCC(Nc2c(NCCN3CCN(c4cccc(C(F)(F)F)c4)CC3)c(=O)c2=O)CC1	2.56 z-score
Cc1cccc2c1NC(=O)C2(c1ccc(O)cc1)c1ccc(O)cc1	0.414 z-score
Clc1cc(Cl)c(OCC#CI)cc1Cl	-4.93 z-score
Cc1[nH]c(/C=C2\C(=O)Nc3ccccc32)c(C)c1CCC(=O)O	-0.675 z-score
CC12CCC(=O)C=C1CCC1C2C(O)CC2(C)C1CCC2(O)C(=O)CO (stereo not drawn)	1.75 z-score
CN(C/C=C/C#CC(C)(C)C)Cc1cccc2ccccc12	-0.301 z-score
CC1(C)S[C@@H]2[C@H](NC(=O)[C@H](NC(=O)N3CCNC3=O)c3ccccc3)C(=O)N2[C@H]1C(=O)O	0.765 z-score
COc1ccn2ncc(-c3nc4[nH]nc(NC(=O)c5ccc(F)cc5)c4cc3F)c2c1	0.428 z-score
CN(C)c1ccc(C(=O)NCCCCCCC(=O)NO)cc1	-0.418 z-score
CC(C)N(CCC(=O)c1ccc2ccccc2c1)Cc1ccccc1	-0.391 z-score

Study 2
SMILES: CS(=O)(=O)CCNCc1ccc(-c2ccc3ncnc(Nc4ccc(OCc5cccc(F)c5)c(Cl)c4)c3c2)o1
Read-out: enzyme activity
Action: inhibitor
Tested at: 0.5 µM
Reference: control
target	remaining activity [%]
PAS domain-containing serine/threonine-protein kinase (PASK, Homo sapiens, UniProt Q96RG2)	101
Serine/threonine-protein kinase Nek11 (NEK11, Homo sapiens, UniProt Q8NG66)	107
Tyrosine-protein kinase Fgr (FGR, Homo sapiens, UniProt P09769)	84.8
Insulin receptor (INSR, Homo sapiens, UniProt P06213)	105
Proto-oncogene tyrosine-protein kinase Src (SRC, Homo sapiens, UniProt P12931)	102
ALK tyrosine kinase receptor (ALK, Homo sapiens, UniProt Q9UM73)	104
Tyrosine-protein kinase Fyn (FYN, Homo sapiens, UniProt P06241)	99.4
Serine/threonine-protein kinase 25 (STK25, Homo sapiens, UniProt O00506)	102
Vascular endothelial growth factor receptor 3 (FLT4, Homo sapiens, UniProt P35916)	93.3
Homeodomain-interacting protein kinase 1 (HIPK1, Homo sapiens, UniProt Q86Z02)	97.1
Tyrosine-protein kinase ITK/TSK (ITK, Homo sapiens, UniProt Q08881)	98.3
Cyclin-dependent kinase 3, with cyclin E (CDK3, Homo sapiens, UniProt Q00526)	94.6
Megakaryocyte-associated tyrosine-protein kinase (MATK, Homo sapiens, UniProt P42679)	75.9
LIM domain kinase 1 (LIMK1, Homo sapiens, UniProt P53667)	95.2
Serine/threonine-protein kinase N1 (PKN1, Homo sapiens, UniProt Q16512)	106
RAC-alpha serine/threonine-protein kinase (AKT1, Homo sapiens, UniProt P31749)	95.6
Tyrosine-protein kinase Fer (FER, Homo sapiens, UniProt P16591)	94.6
cAMP-dependent protein kinase catalytic subunit PRKX (PRKX, Homo sapiens, UniProt P51817)	111
Serine/threonine-protein kinase NLK (NLK, Homo sapiens, UniProt Q9UBE8)	108

Study 3
SMILES: CCS(=O)(=O)c1cc2cc(C[C@@](O)(CC(C)(C)c3ccc(F)cc3C(N)=O)C(F)(F)F)[nH]c2cn1
Read-out: cell-free assay
Technique: competition with immobilised ligand
Tested at: 1 µM
target	remaining binding [%]
Mitogen-activated protein kinase kinase kinase 2 (MAP3K2, Homo sapiens, UniProt Q9Y2U5)	100
Receptor-type tyrosine-protein kinase FLT3 (FLT3, Homo sapiens, UniProt P36888, D835V)	79
Fibroblast growth factor receptor 1 (FGFR1, Homo sapiens, UniProt P11362)	95
Epidermal growth factor receptor (EGFR, Homo sapiens, UniProt P00533, del746-750)	94
Epidermal growth factor receptor (EGFR, Homo sapiens, UniProt P00533, L861Q)	100
Serine/threonine-protein kinase TAO3 (TAOK3, Homo sapiens, UniProt Q9H2K8)	78
Ribosomal protein S6 kinase alpha-3, N-terminal kinase domain (RPS6KA3, Homo sapiens, UniProt P51812)	100
Myosin light chain kinase (MYLK3, Homo sapiens, UniProt Q32MK0)	80
Ribosomal protein S6 kinase beta-1 (RPS6KB1, Homo sapiens, UniProt P23443)	80
Tyrosine-protein kinase ABL1, non-phosphorylated (ABL1, Homo sapiens, UniProt P00519, T315I)	67
Mitogen-activated protein kinase kinase kinase 9 (MAP3K9, Homo sapiens, UniProt P80192)	96
Cyclin-dependent kinase 18 (CDK18, Homo sapiens, UniProt Q07002)	100
Epidermal growth factor receptor (EGFR, Homo sapiens, UniProt P00533, A750P/del747-749)	79
Serine/threonine-protein kinase PLK4 (PLK4, Homo sapiens, UniProt O00444)	87
SNF-related serine/threonine-protein kinase (SNRK, Homo sapiens, UniProt Q9NRH2)	98
Cyclin-dependent kinase-like 2 (CDKL2, Homo sapiens, UniProt Q92772)	90
Ribosomal protein S6 kinase alpha-5, N-terminal kinase domain (RPS6KA5, Homo sapiens, UniProt O75582)	100
RAC-gamma serine/threonine-protein kinase (AKT3, Homo sapiens, UniProt Q9Y243)	90

Study 4
SMILES: CC(=O)N[C@@H](Cc1c[nH]c2ccccc12)C(=O)N[C@@H](CCC(=O)C=[N+]=[N-])C(=O)OC(C)C
Host: C57BL/6 CES1-/- mice, MC-38 tumour
Dose: dose not given
With: anti-PD-1
Reference: initial
time	body weight
day 80 after inoculation	100% and 104%
day 91 after inoculation	110% and 109%
day 40 after inoculation	96% and 98.2% and 94% and 101% and 93.9% and 99.3%
day 53 after inoculation	93.7% and 90.3% and 75.2% and 102% and 97.5% and 100%
day 12 after inoculation	97.3% and 99.3% and 98.6% and 100% and 99.6% and 97.5% and 97.4%
day 11 after inoculation	101% and 104% and 102% and 106%
day 63 after inoculation	101% and 104% and 95.5% and 98.7%

For quick reference, copied from above (study 2):
target	remaining activity [%]
Homeodomain-interacting protein kinase 1 (HIPK1, Homo sapiens, UniProt Q86Z02)	97.1
Tyrosine-protein kinase ITK/TSK (ITK, Homo sapiens, UniProt Q08881)	98.3
Cyclin-dependent kinase 3, with cyclin E (CDK3, Homo sapiens, UniProt Q00526)	94.6
Megakaryocyte-associated tyrosine-protein kinase (MATK, Homo sapiens, UniProt P42679)	75.9
LIM domain kinase 1 (LIMK1, Homo sapiens, UniProt P53667)	95.2
Serine/threonine-protein kinase N1 (PKN1, Homo sapiens, UniProt Q16512)	106
RAC-alpha serine/threonine-protein kinase (AKT1, Homo sapiens, UniProt P31749)	95.6
Tyrosine-protein kinase Fer (FER, Homo sapiens, UniProt P16591)	94.6
